# Published values pooled from the literature.
# Each line is one published result; not all experiments were run side by side. Several values in a cell are separate wells, animals, samples, runs or records.
# B1: cathepsin A (human); sequence looked up; chain APDQDEIQRLPGLAKQPSFRQYSGYLKGSGSKHLHYWFVESQKDPENSPVVLWLNGGPGCSSLDGLLTEHGPFLVQPDGVTLEYNPYSWNLIANVLYLESPAGVGFSYSDDKFYATNDTEVAQSNFEALQDFFRLFPEYKNNKLFLTGESYAGIYIPTLAVLVMQDPSMNLQGLAVGNGLSSYEQNDNSLVYFAYYHGLLGNRLWSSLQTHCCSQNKCNFYDNKDLECVTNLQEVARIVGNSGLNIYNLYAPCAGGVPSHFRYEKDTVVVQDLGNIFTRLPLKRMWHQALLRSGDKVRMDPPCTNTTAASTYLNNPYVRKALNIPEQLPQWDMCNFLVNLQYRRLYRSMNSQYLKLLSSQKYQILLYNGDVDMACNFMGDEWFVDSLNQKMEVQRRPWLVKYGDSGEQIAGFVKEFSHIAFLTIKGAGHMVPTDKPLAAFTMFSRFLNKQPY
Molecule,target or system,test,system,setting,scale,endpoint,value
Polymyxin B,Staphylococcus aureus,DiSC3(5) fluorescence,,"concentration not given, 81 min",higher = more depolarisation,membrane depolarisation,506 a.u. and 438 a.u. and 555 a.u.
colistin,Staphylococcus aureus,,"ATCC 25922, RPMI 1640 10% FBS","18 to 24 h, 37 °C",,MIC,0.98 µM
bacitracin,Staphylococcus aureus,,CGMCC 1.9,"concentration not given, 18 h, 37 °C",,inhibition zone diameter,8 mm
benzalkonium chloride,Staphylococcus aureus,,SH1000 MSSA,tested up to 1 µM,,MIC,4 µM
gentamicin sulfate,Staphylococcus aureus,,ATCC 35923,"18 h, 37 °C, together with: LED light 1.57 mW, 10 min",,MIC,1 µM
Polymyxin B,Staphylococcus aureus,broth microdilution,MRSA clinical isolate,,,MIC,> 32 µg/mL
polymyxin B,Staphylococcus aureus,broth microdilution,"MRSA USA300-0114, Mueller-Hinton broth","24 h, 37 °C",,MIC,63 µg/mL
B1 (cathepsin A),CYB5R4 knockout human cells,"PP6 interaction, 3xFLAG-PP6C IP-MS",,concentration not given,baseline: CYB5R4 KO over parental,log2 fold change,0.56
DAPT,Staphylococcus aureus,,ATCC 29213,,,MIC,1.5 µg/mL
human RAB1B,CYB5R4 knockout human cells,"PP4 interaction, 3xFLAG-PP4C IP-MS",,concentration not given,baseline: CYB5R4 KO over parental,log2 fold change,-2.21
Polymyxin B,Staphylococcus aureus,,,"concentration not given, together with: MgCl2 1 mM",baseline: no added salt,MIC fold change,2 fold

# Some of these lines once more:
Molecule,target or system,test,system,setting,scale,endpoint,value
bacitracin,Staphylococcus aureus,,CGMCC 1.9,"concentration not given, 18 h, 37 °C",,inhibition zone diameter,8 mm
benzalkonium chloride,Staphylococcus aureus,,SH1000 MSSA,tested up to 1 µM,,MIC,4 µM
